Experimental data of several laboratories.
Compare with care: the assays were run in different laboratories. Numbers after ± are the reported error.
TDP1: Tyrosyl-DNA phosphodiesterase 1 (TDP1, Homo sapiens, UniProt Q9NUW8)
Sequence of UniProt Q9NUW8 (whole entry, looked up): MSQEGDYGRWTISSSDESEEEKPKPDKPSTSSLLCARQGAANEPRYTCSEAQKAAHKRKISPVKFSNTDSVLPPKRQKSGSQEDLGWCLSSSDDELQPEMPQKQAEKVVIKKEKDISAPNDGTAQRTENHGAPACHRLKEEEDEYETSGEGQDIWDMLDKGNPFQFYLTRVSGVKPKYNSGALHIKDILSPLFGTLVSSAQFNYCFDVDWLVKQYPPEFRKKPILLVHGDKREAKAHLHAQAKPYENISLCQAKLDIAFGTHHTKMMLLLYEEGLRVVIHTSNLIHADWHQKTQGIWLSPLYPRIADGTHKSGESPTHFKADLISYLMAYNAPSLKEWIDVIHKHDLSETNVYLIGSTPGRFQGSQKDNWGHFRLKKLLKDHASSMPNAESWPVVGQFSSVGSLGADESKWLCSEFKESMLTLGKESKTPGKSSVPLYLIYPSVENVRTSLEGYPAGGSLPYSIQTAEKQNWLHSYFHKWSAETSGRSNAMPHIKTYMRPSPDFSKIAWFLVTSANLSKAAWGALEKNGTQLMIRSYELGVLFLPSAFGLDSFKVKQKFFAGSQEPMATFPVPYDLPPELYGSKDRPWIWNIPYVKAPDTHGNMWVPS

For `COc1ccc(Nc2nc(Nc3ccc(OCCOCCOCC[18F])cc3)ncc2Br)cc1`, the tissue uptake was 2.24 ± 0.16 %ID/g (ICR mice, S180 tumour-bearing, liver; intravenous, 370 kBq, 60 min).
With `O=C(O)CCCOc1ccc([18F])cc1-c1cc(-c2ccccc2C(F)(F)F)n(-c2ccccc2)n1` the tissue uptake was 3.91 ± 0.32 %ID/g (mouse, small intestine; intravenous, dose not given, 60 min).
`O=C(O)c1ccc(Nc2c(-c3ccccc3)nc3ccc(CON=Cc4ccc(-c5cccs5)s4)cn23)cc1` (mixture of isomers) has an inhibition of 24.4% (TDP1; enzyme activity, inhibitor; 100 µM, unpurified compound).
For `COc1cccc(OC)c1-c1cc(C(=O)NC2(C(=O)O)C3CC4CC(C3)CC2C4)nn1-c1ccc(C(=O)N(C)CCCN(C)CCCN(C)C(=O)[C@H](CCCCNC(=O)[C@H](CC(C)C)NC(=O)C2OC2C(=O)O)NC(=O)CN2CCN(CC(=O)[O-])CCN(CC(=O)[O-])CCN(CC(=O)[O-])CC2)cc1C(C)C.[177Lu+3]` (mixture of isomers), the tissue uptake was 0.136 %ID/g (mouse HT-29 xenograft, large intestine; 168 h post injection, biodistribution).
Under tissue uptake, `[123I]c1ccc2nc(-c3ccc(-n4ccnn4)nc3)cn2c1` is recorded as “not detected” (Wistar rat, adrenals; intravenous, 14 h).
For `[11CH3]N1CCC(NC(=O)c2cc(-c3c(O)cc(O)cc3Oc3ccc([N+](=O)[O-])cc3)on2)CC1`, the tissue uptake was 11.3 ± 1.4 %ID (Wistar rat, female, healthy, urine; intravenous, 60 min).
For `CC(=NOCc1ccc2nc(-c3ccccc3)c(Nc3ccc(C(=O)O)cc3)n2c1)c1ccc(O)cc1` (mixture of isomers), the inhibition was 29.1% (TDP1; enzyme activity, inhibitor; 100 µM, unpurified compound).
`Cc1cc(C)n(CCN(CCN)CCCCCCNC(=O)[C@@H](N)Cc2c[nH]cn2)n1.[99Tc+].[C-]#[O+].[C-]#[O+].[C-]#[O+]` gave a tissue uptake of 0.17 ± 0.01 %IA/g (BALB/c nude mice, A549 xenograft, bone; intravenous, 4 h).
`C[N+](C)(CCCN1c2ccccc2CCc2ccc(Cl)cc21)Cc1ccccc1` gave an IC50 of 36.7 µM (Uncharacterized protein (Trypanosoma brucei brucei, UniProt Q386Q8); enzyme activity, inhibitor, coupled colorimetric; with: E. coli pyrophosphatase coupling).
`COc1cccc(OC)c1-c1cc(C(=O)NC2(C(=O)O)C3CC4CC(C3)CC2C4)nn1-c1ccc(C(=O)N(C)CCOCCOCCN(C)C(=O)[C@H](CCCCNC(=O)[C@H](CC(C)C)NC(=O)C2OC2C(=O)O)NC(=O)CN2CCN(CC(=O)[O-])CCN(CC(=O)[O-])CCN(CC(=O)[O-])CC2)cc1C(C)C.[177Lu+3]` (mixture of isomers) gave a tissue uptake of 1.54 %ID/g (mouse, HT-29 xenograft, lung; 4 h post injection).
With `N#C[C@@H]1CC(F)(F)CN1C(=O)CNC(=O)c1ccnc2c(NC(=O)[C@@H](N)CCCCNC(=O)CCOCCOCCOCCOCCOCCOCCNC(=O)CN3CCN(CC(=O)[O-])CCN(CC(=O)[O-])CCN(CC(=O)[O-])CC3)cccc12.[177Lu+3]` the tissue uptake was 0.02 ± 0.03 %ID/g (mouse, U-87 MG tumour xenograft, brain; 24 h).
With `COc1cccc(OC)c1-c1cc(C(=O)NC2(C(=O)O)C3CC4CC(C3)CC2C4)nn1-c1ccc(C(=O)N(C)CCCN(C)C(=O)[C@H](CCCCNC(=O)[C@H](CC(C)C)NC(=O)C2OC2C(=O)O)NC(=O)CN2CCN(CC(=O)[O-])CCN(CC(=O)[O-])CCN(CC(=O)[O-])CC2)cc1C(C)C.[177Lu+3]` (mixture of isomers) the tissue uptake was 1.17 %ID/g (mouse, HT-29 xenograft, kidney; 168 h post injection).
For `COc1ccc(Nc2nc(Nc3ccc(OCCOCC[18F])cc3)ncc2Br)cc1`, the tissue uptake was 5.95 ± 0.11 %ID/g (ICR mice, S180 tumour-bearing, kidney; intravenous, 370 kBq, 30 min).
With `O=C(NCC1OC2CCC=CCCC2O1)c1ccc([18F])nc1` (stereo not drawn) the tissue uptake was 0.2 ± 0.01 %ID/g (healthy female BALB/c nude mice, brain; intravenous, 7.4 MBq per mouse, 120 min).
`COc1cccc(OC)c1-c1cc(C(=O)NC2(C(=O)O)C3CC4CC(C3)CC2C4)nn1-c1ccc(C(=O)N(C)CCOCCN(C)C(=O)[C@H](CCCCNC(=O)[C@H](CC(C)C)NC(=O)C2OC2C(=O)O)NC(=O)CN2CCN(CC(=O)[O-])CCN(CC(=O)[O-])CCN(CC(=O)[O-])CC2)cc1C(C)C.[177Lu+3]` (mixture of isomers) has a tissue uptake of 1.1 %ID/g (mouse, HT-29 xenograft, heart; 4 h post injection).

Repeated from above:
`Cc1cc(C)n(CCN(CCN)CCCCCCNC(=O)[C@@H](N)Cc2c[nH]cn2)n1.[99Tc+].[C-]#[O+].[C-]#[O+].[C-]#[O+]` gave a tissue uptake of 0.17 ± 0.01 %IA/g (BALB/c nude mice, A549 xenograft, bone; intravenous, 4 h).
For `COc1cccc(OC)c1-c1cc(C(=O)NC2(C(=O)O)C3CC4CC(C3)CC2C4)nn1-c1ccc(C(=O)N(C)CCCN(C)CCCN(C)C(=O)[C@H](CCCCNC(=O)[C@H](CC(C)C)NC(=O)C2OC2C(=O)O)NC(=O)CN2CCN(CC(=O)[O-])CCN(CC(=O)[O-])CCN(CC(=O)[O-])CC2)cc1C(C)C.[177Lu+3]` (mixture of isomers), the tissue uptake was 0.136 %ID/g (mouse HT-29 xenograft, large intestine; 168 h post injection, biodistribution).
